Experimental data gathered from unrelated publications.
Each line is one published result; not all experiments were run side by side. ± gives the spread as reported.
Organism: Escherichia coli

Substance	test	system	conditions	MIC
CO/N=C(\C(=O)N[C@@H]1C(=O)N2C(C(=O)O)=C(COC(C)=O)CS[C@H]12)c1csc(N)n1	–	AmpC-overproducing clinical isolate	alone without inhibitor, first isolate	16 µg/mL
CC(C)C[C@H](NC(=O)[C@H](Cc1ccccc1)NC(=O)[C@H](CCCCN)NC(=O)[C@@H](N)CCCCN)C(=O)NCC(=O)N[C@@H](CCCCN)C(=O)N[C@@H](Cc1c[nH]c2ccccc12)C(=O)N[C@@H](CCCCN)C(=O)N[C@@H](CC(C)C)C(=O)N[C@@H](CCCNC(=N)N)C(=O)N[C@@H](Cc1ccccc1)C(=O)NCC(=O)N[C@@H](Cc1c[nH]c2ccccc12)C(N)=O	–	ATCC 25922	1 h, 37 °C, non-dividing cells in PBS	12.5 µg/mL
CC[C@H](C)[C@H](NC(=O)[C@H](CO)NC(=O)[C@H](CO)NC(=O)[C@H](Cc1ccccc1)NC(=O)CN)C(=O)N[C@@H](Cc1ccccc1)C(=O)N[C@@H](CCCCNC(=N)N)C(=O)NCC(=O)N[C@H](C(=O)N[C@@H](C)C(=O)N[C@@H](CCCCNC(=N)N)C(=O)N[C@@H](Cc1ccccc1)C(=O)N[C@@H](C)C(=O)N[C@@H](CO)C(=O)N[C@@H](CCCCNC(=N)N)C(=O)NCC(=O)N[C@@H](CC(C)C)C(=O)NCC(=O)N[C@@H](CCCCNC(=N)N)C(N)=O)C(C)C	–	ATCC 8739	pretreated trypsin 1 mg/mL	16 µM
CC[C@H](C)[C@H](NC(=O)[C@H](Cc1ccc(O)cc1)NC(=O)[C@@H](NC(=O)[C@@H]1CCCN1C(=O)[C@H](CCCNC(=N)N)NC(=O)[C@H](CC(N)=O)NC(=O)[C@H](CC(N)=O)NC(=O)CN)C(C)C)C(=O)N1CCC[C@H]1C(=O)N[C@@H](CCC(N)=O)C(=O)N1CCC[C@H]1C(=O)N[C@@H](CCCNC(=N)N)C(=O)N1CCC[C@H]1C(=O)N1CCC[C@H]1C(=O)N[C@@H](Cc1c[nH]cn1)C(=O)N1CCC[C@H]1C(=O)N[C@@H](CCCNC(=N)N)C(=O)N[C@@H](CC(C)C)C(=O)O	–	JW0368 ΔsbmA	18 h, 37 °C, 12.5% Mueller-Hinton broth	0.384 ± 0.08 µM
CC[C@H](C)[C@H](NC(=O)[C@H](CC(C)C)NC(=O)[C@H](C)NC(=O)[C@@H]1CCCN1C(=O)[C@H](CCCNC(=N)N)NC(=O)[C@@H](N)Cc1ccccc1)C(=O)N[C@H](C(=O)N[C@@H](CCCNC(=N)N)C(=O)N[C@H](C(=O)N[C@@H](CCCCN)C(=O)NCC(=O)N[C@H](C(=O)N[C@@H](CCCNC(=N)N)C(=O)N[C@@H](CC(C)C)C(=O)O)[C@@H](C)O)[C@@H](C)O)C(C)C	broth microdilution	K12	37 °C	> 30 µM
CC(C)C[C@H](NC(=O)[C@H](CCCNC(=N)N)NC(=O)[C@@H]1CCCN1C(=O)[C@H](CCCNC(=N)N)NC(=O)[C@@H]1CCCN1C(=O)[C@@H]1CCCN1C(=O)[C@H](CCCNC(=N)N)NC(=O)[C@@H]1CCCN1C(=O)[C@H](CCC(N)=O)NC(=O)[C@@H]1CCCN1C(=O)[C@H](CCCNC(=N)N)NC(=O)[C@H](Cc1ccc(O)cc1)NC(=O)[C@@H](NC(=O)[C@@H]1CCCN1C(=O)[C@H](CCCNC(=N)N)NC(=O)[C@H](CC(N)=O)NC(=O)[C@H](CC(N)=O)NC(=O)CN)C(C)C)C(=O)O	broth microdilution	BW25113 parental, Mueller-Hinton broth	18 h, 37 °C	0.062 ± 0.027 µM
CC(C)[C@H](N)C(=O)N[C@@H](CS)C(=O)N1CCC[C@H]1C(=O)N[C@@H](Cc1c[nH]cn1)C(=O)N[C@@H](CCCNC(=N)N)C(=O)N[C@@H](CS)C(=O)O	broth microdilution	MTCC 443	37 °C	40 µg/mL
CC[C@H](C)[C@H](NC(=O)[C@H](C)NC(=O)CNC(=O)[C@H](C)NC(=O)[C@H](CCCCN)NC(=O)[C@H](CO)NC(=O)[C@H](C)NC(=O)[C@H](CCSC)NC(=O)CN)C(=O)N[C@@H](C)C(=O)NCC(=O)N[C@@H](CCCCN)C(=O)N[C@H](C(=O)N[C@@H](C)C(=O)N[C@@H](CCCCN)C(=O)N[C@H](C(=O)N[C@@H](C)C(=O)N[C@@H](CC(C)C)C(=O)N[C@@H](CCCCN)C(=O)N[C@@H](C)C(=O)N[C@@H](CC(C)C)C(N)=O)C(C)C)[C@@H](C)CC	broth microdilution	K12	37 °C	25 µM
CC[C@H](C)[C@H](NC(=O)[C@H](CCCNC(=N)N)NC(=O)[C@@H](N)CCCNC(=N)N)C(=O)N[C@@H](CCCNC(=N)N)C(=O)N1CCC[C@H]1C(=O)N[C@@H](CCCNC(=N)N)C(=O)N1CCC[C@H]1C(=O)N1CCC[C@H]1C(=O)N[C@@H](CCCNC(=N)N)C(=O)N[C@@H](CC(C)C)C(=O)N1CCC[C@H]1C(=O)N[C@@H](CCCNC(=N)N)C(=O)N1CCC[C@H]1C(=O)N[C@@H](CCCNC(=N)N)C(=O)N1CCC[C@H]1C(=O)N[C@@H](CCCNC(=N)N)C(=O)N1CCC[C@H]1C(=O)N[C@@H](CC(C)C)C(=O)N1CCC[C@H]1C(=O)N[C@@H](Cc1ccccc1)C(=O)N1CCC[C@H]1C(=O)N[C@@H](CCCNC(=N)N)C(=O)N1CCC[C@H]1C(=O)NCC(=O)N1CCC[C@H]1C(=O)N[C@@H](CCCNC(=N)N)C(=O)N1CCC[C@H]1C(=O)N[C@H](C(=O)N1CCC[C@H]1C(=O)N[C@@H](CCCNC(=N)N)C(=O)N1CCC[C@H]1C(=O)N[C@@H](CC(C)C)C(=O)N1CCC[C@H]1C(=O)N[C@@H](Cc1ccccc1)C(=O)N1CCC[C@H]1C(=O)O)[C@@H](C)CC	alamarBlue	SQ110 LptD defective	overnight, 37 °C	0.75 µM
CC[C@H](C)[C@H](NC(=O)[C@H](Cc1c[nH]cn1)NC(=O)[C@H](Cc1c[nH]cn1)NC(=O)[C@H](Cc1ccccc1)NC(=O)[C@@H](N)Cc1ccccc1)C(=O)N[C@@H](Cc1ccccc1)C(=O)N[C@@H](CCCNC(=N)N)C(=O)NCC(=O)N[C@@H](C)C(=O)N[C@H](C(=O)N[C@@H](Cc1c[nH]cn1)C(=O)N[C@H](C(=O)NCC(=O)N[C@@H](CCCCN)C(=O)N[C@H](C(=O)N[C@H](C(=O)N[C@@H](Cc1c[nH]cn1)C(=O)N[C@@H](CCCNC(=N)N)C(=O)N[C@@H](CC(C)C)C(=O)N[C@H](C(=O)N[C@H](C(=O)NCC(N)=O)[C@@H](C)O)C(C)C)[C@@H](C)CC)[C@@H](C)O)C(C)C)C(C)C	broth microdilution	ATCC 25922	18 h, 37 °C	3.1 µg/mL
CC[C@H](C)[C@H](NC(=O)[C@H](CC(=O)O)NC(=O)[C@H](Cc1ccccc1)NC(=O)[C@H](CC(C)C)NC(=O)CN)C(=O)N[C@H](C(=O)N[C@@H](CCCCN)C(=O)N[C@@H](CCCCN)C(=O)N[C@H](C(=O)N[C@H](C(=O)NCC(=O)N[C@@H](CC(C)C)C(=O)N[C@@H](CC(C)C)C(=O)N[C@@H](CCCCN)C(N)=O)C(C)C)C(C)C)C(C)C	–	ATCC 25922, CAMHB	18 h, 37 °C	> 21 µM
KTLTGKTITLE	–	peptide, DH5α, Luria broth	overnight, 37 °C	10 µM
CC(C)C[C@H](NC(=O)[C@H](CCCNC(=N)N)NC(=O)[C@@H]1CCCN1C(=O)[C@H](Cc1c[nH]cn1)NC(=O)[C@@H]1CCCN1C(=O)[C@@H]1CCCN1C(=O)[C@H](CCCNC(=N)N)NC(=O)[C@@H]1CCCN1C(=O)[C@H](CCC(N)=O)NC(=O)[C@@H]1CCCN1C(=O)[C@H](CCCNC(=N)N)NC(=O)[C@H](Cc1ccc(O)cc1)NC(=O)[C@@H](NC(=O)[C@@H]1CCCN1C(=O)[C@H](CCCCN)NC(=O)[C@H](CC(N)=O)NC(=O)[C@H](CC(N)=O)NC(=O)CN)C(C)C)C(=O)O	broth microdilution	BW25113, 5% M9 medium	–	0.192 ± 0.044 µM
CC[C@H](C)[C@H](NC(=O)CN)C(=O)N[C@@H](CCCCN)C(=O)N[C@H](C(=O)N[C@@H](CCCNC(=N)N)C(=O)N[C@@H](CCCCN)C(=O)N[C@@H](CC(C)C)C(=O)N[C@@H](Cc1ccccc1)C(=O)N[C@@H](CCCCN)C(=O)N[C@@H](CCCCN)C(=O)N[C@@H](CC(C)C)C(=O)N[C@@H](CC(C)C)C(=O)N[C@@H](CCCNC(=N)N)C(N)=O)[C@@H](C)CC	broth microdilution	ATCC 25922, LB medium	16 to 20 h, 37 °C	50 µg/mL
CC[C@H](C)[C@H](NC(=O)CN)C(=O)N[C@@H](Cc1c[nH]c2ccccc12)C(=O)N[C@@H](CC(=O)O)C(=O)N[C@H](C(=O)N[C@H](C(=O)N[C@@H](CCCCN)C(=O)N[C@@H](CO)C(=O)N[C@@H](CCSC)C(=O)NCC(=O)N[C@@H](CCCCN)C(=O)N[C@H](C(=O)N[C@@H](Cc1ccccc1)C(=O)N[C@@H](C)C(=O)NCC(=O)N[C@@H](CCCCN)C(=O)N[C@H](C(=O)N[C@@H](CC(C)C)C(=O)N[C@@H](CCC(N)=O)C(=O)N[C@@H](CC(N)=O)C(=O)N[C@@H](CC(C)C)C(N)=O)[C@@H](C)CC)C(C)C)[C@@H](C)CC)[C@@H](C)O	broth microdilution	K12	37 °C	25 µM
CC[C@H](C)[C@H](N)C(=O)N[C@H](C(=O)N[C@@H](CCCCN)C(=O)N[C@@H](CCCNC(=N)N)C(=O)N[C@H](C(=O)N[C@@H](CC(C)C)C(=O)N[C@H](C(=O)N[C@@H](CCC(N)=O)C(=O)N[C@@H](CC(C)C)C(=O)N[C@@H](CCCCN)C(=O)N[C@@H](CCCCN)C(=O)N[C@@H](CC(C)C)C(=O)N[C@@H](CC(C)C)C(N)=O)[C@@H](C)CC)[C@@H](C)CC)[C@@H](C)CC	–	ATCC 25922	1 h, 37 °C, dividing cells in LB	25 to 50 µg/mL
CC(C)C[C@H](NC(=O)[C@H](C)NC(=O)[C@H](CCCCN)NC(=O)[C@H](C)NC(=O)[C@H](C)NC(=O)CNC(=O)[C@H](CCCCN)NC(=O)[C@H](CC(C)C)NC(=O)[C@H](CC(C)C)NC(=O)[C@H](CC(=O)O)NC(=O)[C@H](CCCCN)NC(=O)[C@H](Cc1ccccc1)NC(=O)CN)C(=O)N[C@H](C(=O)N[C@@H](CCCCN)C(=O)N[C@H](C(=O)N[C@H](C(=O)N[C@@H](CC(C)C)C(=O)N[C@@H](Cc1ccccc1)C(N)=O)C(C)C)[C@@H](C)O)C(C)C	broth microdilution	K12	37 °C	12.5 µM
CC[C@H](C)[C@H](NC(=O)[C@H](CCCNC(=N)N)NC(=O)[C@@H](N)CCCNC(=N)N)C(=O)N[C@@H](CCCCN)C(=O)N[C@@H](CCCCN)C(=O)N[C@@H](CCCNC(=N)N)C(=O)N1CCC[C@H]1C(=O)N1CCC[C@H]1C(=O)N[C@@H](CCCNC(=N)N)C(=O)N[C@@H](CC(C)C)C(=O)N1CCC[C@H]1C(=O)N[C@@H](CCCNC(=N)N)C(=O)N1CCC[C@H]1C(=O)N[C@@H](CCCNC(=N)N)C(=O)N1CCC[C@H]1C(=O)N[C@@H](CCCCN)C(=O)O	–	JW0368 ΔsbmA	18 h, 37 °C, 12.5% Mueller-Hinton broth	0.06 ± 0.014 µM

Excerpt of the above:
Substance	test	system	conditions	MIC
CC[C@H](C)[C@H](NC(=O)CN)C(=O)N[C@@H](CCCCN)C(=O)N[C@H](C(=O)N[C@@H](CCCNC(=N)N)C(=O)N[C@@H](CCCCN)C(=O)N[C@@H](CC(C)C)C(=O)N[C@@H](Cc1ccccc1)C(=O)N[C@@H](CCCCN)C(=O)N[C@@H](CCCCN)C(=O)N[C@@H](CC(C)C)C(=O)N[C@@H](CC(C)C)C(=O)N[C@@H](CCCNC(=N)N)C(N)=O)[C@@H](C)CC	broth microdilution	ATCC 25922, LB medium	16 to 20 h, 37 °C	50 µg/mL
CC[C@H](C)[C@H](NC(=O)[C@H](C)NC(=O)CNC(=O)[C@H](C)NC(=O)[C@H](CCCCN)NC(=O)[C@H](CO)NC(=O)[C@H](C)NC(=O)[C@H](CCSC)NC(=O)CN)C(=O)N[C@@H](C)C(=O)NCC(=O)N[C@@H](CCCCN)C(=O)N[C@H](C(=O)N[C@@H](C)C(=O)N[C@@H](CCCCN)C(=O)N[C@H](C(=O)N[C@@H](C)C(=O)N[C@@H](CC(C)C)C(=O)N[C@@H](CCCCN)C(=O)N[C@@H](C)C(=O)N[C@@H](CC(C)C)C(N)=O)C(C)C)[C@@H](C)CC	broth microdilution	K12	37 °C	25 µM
